Measured values pooled from the literature.
Parts stem from different laboratories: compare values within a part only.

Study 1
Target: Ras GTPase-activating protein-binding protein 1, RRM domain (G3BP1, Homo sapiens, UniProt Q13283)
Chain of UniProt Q13283 (whole entry, looked up): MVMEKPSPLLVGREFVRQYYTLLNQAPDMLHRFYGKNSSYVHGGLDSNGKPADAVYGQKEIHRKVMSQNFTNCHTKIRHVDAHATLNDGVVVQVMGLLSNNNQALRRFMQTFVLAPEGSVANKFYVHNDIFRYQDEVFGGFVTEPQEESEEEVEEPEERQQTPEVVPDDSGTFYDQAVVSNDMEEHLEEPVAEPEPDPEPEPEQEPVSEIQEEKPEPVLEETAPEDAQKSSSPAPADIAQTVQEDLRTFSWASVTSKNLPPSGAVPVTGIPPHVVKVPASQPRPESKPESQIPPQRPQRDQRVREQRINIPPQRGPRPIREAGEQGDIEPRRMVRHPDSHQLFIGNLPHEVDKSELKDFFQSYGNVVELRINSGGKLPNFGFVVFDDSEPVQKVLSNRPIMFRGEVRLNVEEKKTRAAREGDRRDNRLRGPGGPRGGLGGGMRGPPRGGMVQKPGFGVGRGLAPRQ
Method: RNA Bind-n-Seq
Molecule type: RNA
Sample: in vitro
Tested at: 1 µM
Setting: whole 134-nt RNA, ends assumed
With: 150 mM KCl
Reference: input library
Direction: higher = stronger binding
Endpoint: log2 enrichment
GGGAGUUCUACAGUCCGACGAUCCGGCCCUGGUGGCAUGCGGGGAGGAAGAGGUGGCCUCAUGGAUCGUGGUGGUCCCGGUGGAAUGUUCAGAGGUGGCCGUGGUGGAGACAGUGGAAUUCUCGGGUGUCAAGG: 0.983
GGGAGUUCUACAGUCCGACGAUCAGUCCUGUGCUACACAUCGUAUGUACCGAAUCGGGUUUUUGGUUUUUGGGUUUUUGGGAAAGUAUUAUGUUACGCCGUUCGGAUCUGCACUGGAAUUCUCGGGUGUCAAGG: -0.102
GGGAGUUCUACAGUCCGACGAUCUCCUGUGCUACACAUCGUAUGUACCGAAUCGGGAAAAAAAGGGUUUUUUUGGGAAAGGGAAAGUAUUAUGUUACGCCGUUCGGAUCUGCAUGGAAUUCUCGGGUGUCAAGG: -0.0115
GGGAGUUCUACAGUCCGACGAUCUGGGAGGUGGAUUUUGUUUAUUUUUUUAGCUCAUUCCCAGGGGUGGGAAUUUUUUUUUAAUAUGUGUCAUGAAUAAAGUUGUUUUUGAAAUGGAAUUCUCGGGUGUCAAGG: 1.99
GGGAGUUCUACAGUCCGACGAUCCACAGACAACACGCACCCACACAGACACAGAGGGAAGGGGUUGGGAUGGGGAAAGGGUGCACAGCAGGGCGGGGUAGGACCCCAGCCCCUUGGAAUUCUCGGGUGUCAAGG: -0.0787
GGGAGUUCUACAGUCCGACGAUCUAACUUUAGAGGAGGAUCUGAUGGAUAUGGCAGUGGACGUGGAUUUGGUGAUGGCUAUAAUGGGUAUGGAGGAGGACCUGGAGGUGGCAAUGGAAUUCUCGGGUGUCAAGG: -0.625
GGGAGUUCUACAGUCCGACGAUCUCAAGUCCUGUGCUACACAUCGUAUGUACCGAAUCGGGUUUGGGUGGGAAAGGGAAAGUAUUAUGUUACGCCGUUCGGAUCUGCACUUCCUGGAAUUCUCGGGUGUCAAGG: 0.689
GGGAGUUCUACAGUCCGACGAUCUCAAGUCCUGUGCUACACAUCGUAUGUACCGAAUCGGGAGGGUGGGUUUUUGGGAAAGUAUUAUGUUACGCCGUUCGGAUCUGCACUUCCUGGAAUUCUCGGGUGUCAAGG: 0.84
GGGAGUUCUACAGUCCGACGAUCAUUAAUUUGUACACAGACAGGGAAACUGGCAAGCUGAAGGGAGAGGCAACGGUCUCUUUUGAUGACCCACCUUCAGCUAAAGCAGCUAUUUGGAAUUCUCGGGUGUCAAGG: -0.248

Study 2
Target: Interferon regulatory factor 5, full length, phosphomimetic (IRF5, Homo sapiens, UniProt Q13568-2, residues 1-514, K96S/S451D/S453D/S456D/S462D)
Method: protein-binding microarray
Molecule type: double-stranded DNA, one strand shown
Sample: in vitro
Tested at: 250 nM
Setting: 60-bp whole probe
With: salmon DNA 0.4 mg/ml
Reference: random background probes
Direction: higher = stronger binding
Endpoint: log fluorescence
Constant ends, left off below: GCCTAGCAC … GTCTTGATTCGCTTGACGCTGCTG
TTAGGATTCCTTTCCCTTTAGTGCTAG: 0.944 z-score
TTAGATTCCACTTTCGATTAGTGCTAG: 10.5 z-score
TTAGATTTCGGTATCGATTAGTGCTAG: 10.2 z-score
GACGGTATTCTACTGCTGACGTGCTAG: 0.0929 z-score
CTTAGCATGGGGAGGGAGCAGTGCTAG: 0.0386 z-score
GACGGTATCCACACTGGGGACGTGCTA: -0.302 z-score
CTAGATATCGGGTTTCGATTAGTGCTA: 7.67 z-score
TCAATCTTATGATATATAACTGTGCTA: 0.661 z-score
TCAGTTTTACTTTCTATACTGTGCTAG: 5.6 z-score
CCCCAACTCGCCTTTTTTGTTGTGCTA: 0.239 z-score
GGCAGGAATAAAGGAGCAGCGTGCTAG: -0.223 z-score
GACGAACTGGACACTGGGGACGTGCTA: -0.376 z-score

Study 3
Target: RNA binding protein fox-1 homolog 2, RRM domain, GST-SBP tag (RBFOX2, Homo sapiens, UniProt O43251-10, residues 100-194)
Method: RNA Bind-n-Seq
Molecule type: RNA
Sample: in vitro
Tested at: 365 nM
Setting: natural RNA segment, single round, ends assumed
Reference: no-protein control
Direction: higher = stronger binding
Endpoint: RBNS enrichment (R)
Construct (chain): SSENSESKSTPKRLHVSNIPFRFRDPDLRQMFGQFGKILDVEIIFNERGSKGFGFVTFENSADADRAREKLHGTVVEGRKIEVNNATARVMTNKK
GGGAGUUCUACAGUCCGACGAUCUUUCUCUUAAGCAUUUCUCCAUGCCGUGGCCGUGAGUAGUUCUUCAAAAGCAUGUUUUUGAUAAUUGGGAGUCAAGUGGUUGUAAAUUUAUAAGUUAUGCAGUUGUUUCCUGGAAUUCUCGGGUGCCAA: 25.6
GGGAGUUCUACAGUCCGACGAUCUCUGUUAUGUUCCUAUGGAAACACUGUACUGUACAUACUAUGCUUAAAACAUUUAAAACACAAUGUUUUAAAUGUGGACAGAACUGUGUAAACCACAUAAUUUCUGUACAUGGAAUUCUCGGGUGCCAA: 0.354
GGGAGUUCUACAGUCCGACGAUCGAAUCAGGACAGUACCUGUACAGGCACGGGGACCCGCUCCGUCCGUGCGCCGCCCUAUAUUGAGGGCUCCAGCUCUCCCUUGGUUUUUGAAAGGGGUUUAUGUAUAAAUAUGGAAUUCUCGGGUGCCAA: 0.38
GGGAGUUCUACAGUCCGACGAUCACUUUGAGGUUAGUCUGAAUCUUGAACUUUAAUACCAAAUUAAUUUUGAAUGCUUUUGUUUCCUAAGAGAUAAUGGCAUGGUUUCAUAUGUUAUACUUUGGACAGACAGAUGGAAUUCUCGGGUGCCAA: 0.457
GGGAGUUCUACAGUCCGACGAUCCUGUCCAUCCAGCAUCUUAAUCACUUUAAAACUGUGAUUGUUAUUUGCAACUCUGUUCUUUGGAAAGAAUAAAAGCAUUUUUUUUCACUUGCUAACAUGCUCACAAAUGUUGGAAUUCUCGGGUGCCAA: 0.576
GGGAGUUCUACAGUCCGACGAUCUUCUCCCCUGCCCUUCCUCCUGAUGGAGUGUGCAGACAGCCAUGCGUGGCCACGGGGGCAGUGUGAGGACCUCCCUGUCUCCCGGCUCCCCUCCCAGGGGAGCCAGCUGCUGGAAUUCUCGGGUGCCAA: 0.215
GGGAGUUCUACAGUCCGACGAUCCAUCGGGCAGACUUUCUGCCACUGGCUUUUCAAACACUGUCAAUUGGGUUAUUUUUUUACACAGCUGGUAAAGAGGAUUAUUCUGAAGAGUCAAAUGGACAGUAGAAGCAUGGAAUUCUCGGGUGCCAA: 5.35
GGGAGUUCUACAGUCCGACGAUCGCAGGAGUCACAGUUGAGAGCUGGGCUUCCUGCCUCUUACAUACAAUAAAGAGAUUGCUAACACUGGGUAGCUGACCUUUAAUAGAACUACAGCCCUCCCCGUGCCUCUGUGGAAUUCUCGGGUGCCAA: 0.312
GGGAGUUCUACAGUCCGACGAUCACCCUUGGGUGCAGGUCUUUGAAAACAAAGGUGCCAUGAUGGGCUGUUCUAACCCCCACCCCCACUGCCAGGUAUGGGCCAGCAGUUUCCUGCCAGAUAUUGCCCAGCGUUGGAAUUCUCGGGUGCCAA: 0.237

Other studies, line by line
PhoQ, residues 284 288 289 292 302 303 SSTMSV — fold induction (PhoP, residues 12 14 15 18 19 SYFRT (Escherichia coli, UniProt P23836); Sort-seq, measured: YFP reporter; E. coli; PhoQ-PhoP variant library, with: 10 µM Mg2+; reference: high Mg2+ state, higher = stronger signaling): 1.05

For quick reference, copied from above (study 1):
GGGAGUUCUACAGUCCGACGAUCUGGGAGGUGGAUUUUGUUUAUUUUUUUAGCUCAUUCCCAGGGGUGGGAAUUUUUUUUUAAUAUGUGUCAUGAAUAAAGUUGUUUUUGAAAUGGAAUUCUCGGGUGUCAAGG: 1.99
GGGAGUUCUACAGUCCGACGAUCCACAGACAACACGCACCCACACAGACACAGAGGGAAGGGGUUGGGAUGGGGAAAGGGUGCACAGCAGGGCGGGGUAGGACCCCAGCCCCUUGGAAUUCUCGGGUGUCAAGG: -0.0787
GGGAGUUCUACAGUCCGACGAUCUAACUUUAGAGGAGGAUCUGAUGGAUAUGGCAGUGGACGUGGAUUUGGUGAUGGCUAUAAUGGGUAUGGAGGAGGACCUGGAGGUGGCAAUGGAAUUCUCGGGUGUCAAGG: -0.625
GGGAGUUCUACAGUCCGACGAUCUCAAGUCCUGUGCUACACAUCGUAUGUACCGAAUCGGGUUUGGGUGGGAAAGGGAAAGUAUUAUGUUACGCCGUUCGGAUCUGCACUUCCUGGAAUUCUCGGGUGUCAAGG: 0.689
